Measurements from different studies.
A part holds a random share of what one study measured.
Chain of UniProt O14936 (whole entry, looked up): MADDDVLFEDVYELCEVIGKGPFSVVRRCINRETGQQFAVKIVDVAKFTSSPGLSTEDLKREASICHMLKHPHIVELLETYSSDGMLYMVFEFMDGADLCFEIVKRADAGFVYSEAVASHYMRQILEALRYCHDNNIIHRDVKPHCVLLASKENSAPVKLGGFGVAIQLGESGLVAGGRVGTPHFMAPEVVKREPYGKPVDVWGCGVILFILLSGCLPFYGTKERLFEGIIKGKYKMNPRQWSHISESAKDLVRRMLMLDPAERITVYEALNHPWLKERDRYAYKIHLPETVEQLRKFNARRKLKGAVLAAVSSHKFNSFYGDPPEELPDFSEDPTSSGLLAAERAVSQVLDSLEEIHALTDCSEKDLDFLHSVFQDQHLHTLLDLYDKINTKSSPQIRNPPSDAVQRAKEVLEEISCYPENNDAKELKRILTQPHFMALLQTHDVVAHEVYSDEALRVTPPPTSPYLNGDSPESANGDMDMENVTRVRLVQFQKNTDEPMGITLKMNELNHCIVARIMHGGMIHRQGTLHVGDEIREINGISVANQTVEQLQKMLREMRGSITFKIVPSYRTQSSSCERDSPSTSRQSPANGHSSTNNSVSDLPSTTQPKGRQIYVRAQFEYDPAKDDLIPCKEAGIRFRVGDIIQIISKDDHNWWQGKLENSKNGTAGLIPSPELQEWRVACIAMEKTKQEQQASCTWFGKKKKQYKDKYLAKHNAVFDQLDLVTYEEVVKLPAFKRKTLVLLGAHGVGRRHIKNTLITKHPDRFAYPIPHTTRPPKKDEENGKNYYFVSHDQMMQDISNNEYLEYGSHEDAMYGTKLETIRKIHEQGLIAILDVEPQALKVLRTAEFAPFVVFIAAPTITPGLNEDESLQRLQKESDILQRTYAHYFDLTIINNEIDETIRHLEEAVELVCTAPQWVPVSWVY
Chain of UniProt P28482 (whole entry, looked up): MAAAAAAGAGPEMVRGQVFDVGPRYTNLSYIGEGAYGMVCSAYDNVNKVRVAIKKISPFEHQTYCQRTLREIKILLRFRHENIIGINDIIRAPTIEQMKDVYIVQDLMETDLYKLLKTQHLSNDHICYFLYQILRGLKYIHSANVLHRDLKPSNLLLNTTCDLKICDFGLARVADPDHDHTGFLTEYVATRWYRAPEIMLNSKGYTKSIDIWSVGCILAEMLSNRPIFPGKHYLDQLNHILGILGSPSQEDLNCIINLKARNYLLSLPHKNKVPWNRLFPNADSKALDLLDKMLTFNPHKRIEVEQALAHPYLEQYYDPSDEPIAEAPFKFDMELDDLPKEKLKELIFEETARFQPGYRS
Chain of UniProt Q9Y616 (whole entry, looked up): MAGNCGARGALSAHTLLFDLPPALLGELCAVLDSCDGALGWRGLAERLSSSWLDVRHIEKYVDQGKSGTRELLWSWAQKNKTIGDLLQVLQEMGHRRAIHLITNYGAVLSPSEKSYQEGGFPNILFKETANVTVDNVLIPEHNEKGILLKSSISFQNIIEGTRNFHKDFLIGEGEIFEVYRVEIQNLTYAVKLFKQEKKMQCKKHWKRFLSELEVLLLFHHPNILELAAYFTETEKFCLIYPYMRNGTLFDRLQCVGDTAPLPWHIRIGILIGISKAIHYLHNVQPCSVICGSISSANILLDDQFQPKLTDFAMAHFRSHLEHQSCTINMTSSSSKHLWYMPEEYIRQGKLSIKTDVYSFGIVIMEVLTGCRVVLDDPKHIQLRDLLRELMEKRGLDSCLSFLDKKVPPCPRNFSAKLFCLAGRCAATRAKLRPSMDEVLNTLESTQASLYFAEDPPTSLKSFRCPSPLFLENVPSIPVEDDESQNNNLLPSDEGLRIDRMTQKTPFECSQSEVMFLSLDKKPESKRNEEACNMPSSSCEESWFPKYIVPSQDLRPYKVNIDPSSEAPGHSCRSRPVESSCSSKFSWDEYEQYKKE
Chain of UniProt O76039 (whole entry, looked up): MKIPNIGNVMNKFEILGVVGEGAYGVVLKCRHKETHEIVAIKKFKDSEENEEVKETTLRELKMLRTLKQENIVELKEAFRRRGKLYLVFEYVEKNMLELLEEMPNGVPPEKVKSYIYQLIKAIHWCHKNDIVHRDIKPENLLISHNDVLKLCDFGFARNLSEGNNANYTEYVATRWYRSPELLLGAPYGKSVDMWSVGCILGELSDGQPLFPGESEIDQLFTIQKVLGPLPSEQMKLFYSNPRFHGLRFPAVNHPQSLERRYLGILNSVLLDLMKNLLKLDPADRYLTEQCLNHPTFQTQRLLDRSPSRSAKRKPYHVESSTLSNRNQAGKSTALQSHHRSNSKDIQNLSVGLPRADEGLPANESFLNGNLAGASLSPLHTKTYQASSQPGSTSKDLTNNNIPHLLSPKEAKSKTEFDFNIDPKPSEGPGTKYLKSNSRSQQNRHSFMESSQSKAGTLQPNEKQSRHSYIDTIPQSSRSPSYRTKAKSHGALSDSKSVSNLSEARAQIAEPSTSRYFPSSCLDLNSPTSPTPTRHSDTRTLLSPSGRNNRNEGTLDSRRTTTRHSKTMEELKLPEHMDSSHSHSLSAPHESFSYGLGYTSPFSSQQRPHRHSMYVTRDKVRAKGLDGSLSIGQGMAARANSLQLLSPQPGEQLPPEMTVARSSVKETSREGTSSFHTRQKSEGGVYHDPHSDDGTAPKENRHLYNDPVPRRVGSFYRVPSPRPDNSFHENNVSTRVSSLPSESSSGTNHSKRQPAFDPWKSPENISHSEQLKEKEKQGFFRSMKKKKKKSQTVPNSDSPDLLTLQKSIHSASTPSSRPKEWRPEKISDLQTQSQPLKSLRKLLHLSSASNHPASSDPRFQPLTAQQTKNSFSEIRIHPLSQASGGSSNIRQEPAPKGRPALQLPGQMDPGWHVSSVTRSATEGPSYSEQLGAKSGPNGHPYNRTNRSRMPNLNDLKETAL
Chain of UniProt Q8TF76 (whole entry, looked up): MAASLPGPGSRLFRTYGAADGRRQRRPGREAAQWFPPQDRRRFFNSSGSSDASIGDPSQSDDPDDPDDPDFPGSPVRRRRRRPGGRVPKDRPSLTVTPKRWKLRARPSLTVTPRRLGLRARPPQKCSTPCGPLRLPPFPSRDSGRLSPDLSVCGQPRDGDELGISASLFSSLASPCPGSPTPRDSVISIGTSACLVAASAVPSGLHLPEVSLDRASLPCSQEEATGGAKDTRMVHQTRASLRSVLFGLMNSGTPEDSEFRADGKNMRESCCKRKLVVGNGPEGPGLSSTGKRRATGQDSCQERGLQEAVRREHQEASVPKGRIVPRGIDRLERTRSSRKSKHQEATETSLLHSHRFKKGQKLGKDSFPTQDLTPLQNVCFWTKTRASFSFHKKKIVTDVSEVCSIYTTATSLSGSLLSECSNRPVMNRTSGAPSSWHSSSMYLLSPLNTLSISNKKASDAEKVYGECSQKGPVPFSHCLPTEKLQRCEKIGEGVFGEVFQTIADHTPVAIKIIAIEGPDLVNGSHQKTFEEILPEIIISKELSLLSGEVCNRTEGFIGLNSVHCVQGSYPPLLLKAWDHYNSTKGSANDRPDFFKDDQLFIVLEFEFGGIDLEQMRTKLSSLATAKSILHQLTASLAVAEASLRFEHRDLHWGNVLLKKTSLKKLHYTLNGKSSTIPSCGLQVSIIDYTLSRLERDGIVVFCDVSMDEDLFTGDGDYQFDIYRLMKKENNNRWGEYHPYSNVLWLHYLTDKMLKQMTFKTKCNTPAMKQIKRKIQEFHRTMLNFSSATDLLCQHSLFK
Chain of UniProt P53350 (whole entry, looked up): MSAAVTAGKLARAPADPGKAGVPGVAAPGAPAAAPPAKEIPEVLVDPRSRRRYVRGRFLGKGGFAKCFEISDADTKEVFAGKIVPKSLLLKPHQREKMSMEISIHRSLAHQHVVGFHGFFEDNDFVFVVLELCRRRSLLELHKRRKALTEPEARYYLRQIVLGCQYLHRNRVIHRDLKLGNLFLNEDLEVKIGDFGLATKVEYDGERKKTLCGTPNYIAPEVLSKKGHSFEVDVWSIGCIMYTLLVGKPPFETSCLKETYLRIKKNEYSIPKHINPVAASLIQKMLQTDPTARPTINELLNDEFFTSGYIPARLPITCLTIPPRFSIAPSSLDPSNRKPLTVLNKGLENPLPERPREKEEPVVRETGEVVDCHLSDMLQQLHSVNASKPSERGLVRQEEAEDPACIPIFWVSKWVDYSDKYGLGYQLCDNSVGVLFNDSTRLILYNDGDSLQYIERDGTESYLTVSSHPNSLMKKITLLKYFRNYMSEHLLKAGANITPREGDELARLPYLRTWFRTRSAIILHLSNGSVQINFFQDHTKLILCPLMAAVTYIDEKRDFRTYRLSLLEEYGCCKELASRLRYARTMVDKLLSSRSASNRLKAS
Chain of UniProt P15735 (whole entry, looked up): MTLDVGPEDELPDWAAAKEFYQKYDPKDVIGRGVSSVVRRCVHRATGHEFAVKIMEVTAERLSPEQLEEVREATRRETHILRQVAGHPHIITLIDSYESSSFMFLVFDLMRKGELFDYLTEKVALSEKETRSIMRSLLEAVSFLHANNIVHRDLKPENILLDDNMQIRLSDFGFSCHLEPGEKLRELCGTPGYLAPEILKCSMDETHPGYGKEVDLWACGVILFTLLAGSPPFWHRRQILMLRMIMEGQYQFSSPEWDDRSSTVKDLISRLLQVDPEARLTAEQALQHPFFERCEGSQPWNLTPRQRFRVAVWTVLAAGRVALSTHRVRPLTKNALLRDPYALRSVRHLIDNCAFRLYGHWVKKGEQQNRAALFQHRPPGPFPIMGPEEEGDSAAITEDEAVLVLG

Block 1
Target: Cyclin-dependent kinase 6, with cyclin D1 (CDK6, Homo sapiens, UniProt Q00534)
Chain of UniProt Q00534 (whole entry, looked up): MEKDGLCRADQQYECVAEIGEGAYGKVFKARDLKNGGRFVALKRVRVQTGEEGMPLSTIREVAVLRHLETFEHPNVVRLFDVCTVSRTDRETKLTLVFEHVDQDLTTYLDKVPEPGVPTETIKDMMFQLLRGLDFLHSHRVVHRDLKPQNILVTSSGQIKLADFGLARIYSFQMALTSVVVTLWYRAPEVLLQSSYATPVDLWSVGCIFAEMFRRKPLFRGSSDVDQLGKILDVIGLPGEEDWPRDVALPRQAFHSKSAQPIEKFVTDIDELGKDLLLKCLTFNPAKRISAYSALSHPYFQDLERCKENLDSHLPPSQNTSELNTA
Read-out: enzyme activity
Mode: inhibitor
Tested at: 0.5 µM
Baseline: control
`CCN(CC)C(=O)c1ccc(Nc2nc(OCC3CCCCC3)c3[nH]cnc3n2)cc1` gave a remaining activity of 52.9%.
`c1ccc(-c2[nH]ncc2-c2ccnc3ccccc23)nc1` has a remaining activity of 91.1%.
With `CN([C@@H](Cc1ccc(OS(=O)(=O)c2cccc3cnccc23)cc1)C(=O)N1CCN(c2ccccc2)CC1)S(=O)(=O)c1cccc2cnccc12` the remaining activity was 91.6%.
For `COc1cc2ncnc(Nc3ccc(O)c(Br)c3)c2cc1OC`, the remaining activity was 95.4%.
`CCN(CC)CCNC(=O)c1c(C)[nH]c(/C=C2\C(=O)Nc3ccc(Cl)cc32)c1C` has a remaining activity of 27.8%.
With `O=C1C(Cl)=C(N2C(=O)CCC2=O)C(=O)c2ccccc21` the remaining activity was 100%.
`COc1cc2ncnc(Nc3cccc(Cl)c3)c2cc1OC` has a remaining activity of 92.5%.
`Cn1nc2c3c(cccc31)C(=O)c1ccccc1-2` has a remaining activity of 88%.
For `C[C@@H]1CCN(C(=O)CC#N)C[C@@H]1N(C)c1ncnc2[nH]ccc12`, the remaining activity was 96.5%.
For `Cc1cn(-c2cc(NC(=O)c3ccc(C)c(Nc4nccc(-c5cccnc5)n4)c3)cc(C(F)(F)F)c2)cn1`, the remaining activity was 97.1%.

Block 2
Host: mouse
Medium: microsomes or S9
Tested at: 2 µM
Time: 0.5 h
For `O=C(Nc1ccncc1)c1nn(-c2ccc(F)cc2)c2c1CCc1ccccc1-2`, the remaining compound was 84.5%.
`COc1c(-c2ccc(F)c(F)c2)c(-n2cncn2)nc2ccc(F)cc12` has a remaining compound of over 100%.
`OCCN(Cc1ccccc1)CC(O)COc1c(F)cc(Br)cc1F` (centres unmarked) has a remaining compound of 80.7%.

Block 3
Compound: CNC(=O)c1ccc(Nc2ncc(C(F)(F)F)c(NCc3nccnc3N(C)S(C)(=O)=O)n2)cc1
Read-out: cell-free assay
Method: competition with immobilised ligand
Tested at: 0.1 µM
It gave 70% for remaining binding (Interleukin-1 receptor-associated kinase 3 (IRAK3, Homo sapiens, UniProt Q9Y616)).
It gave 88% for remaining binding (Peripheral plasma membrane protein CASK (CASK, Homo sapiens, UniProt O14936)).
It gave 100% for remaining binding (Serine/threonine-protein kinase haspin (HASPIN, Homo sapiens, UniProt Q8TF76)).
Cyclin-dependent kinase-like 5 (CDKL5, Homo sapiens, UniProt O76039) — remaining binding: 100%.
The remaining binding was 76% (Mitogen-activated protein kinase 1 (MAPK1, Homo sapiens, UniProt P28482)).
The remaining binding was 75% (Phosphorylase b kinase gamma catalytic chain, liver/testis isoform (PHKG2, Homo sapiens, UniProt P15735)).

Mixed results
`COc1cc(C(=O)N2CCC(N3CCN(C)CC3)CC2)ccc1Nc1ncc2c(n1)N(C)c1ccccc1C(=O)N2C`: “concentration causing mitotic arrest” 10 µM (Serine/threonine-protein kinase PLK1 (PLK1, Homo sapiens, UniProt P53350); prometaphase arrest; HeLa S3; 18 h).

Repeated from above (block 3):
It gave 100% for remaining binding (Serine/threonine-protein kinase haspin (HASPIN, Homo sapiens, UniProt Q8TF76)).
Cyclin-dependent kinase-like 5 (CDKL5, Homo sapiens, UniProt O76039) — remaining binding: 100%.
The remaining binding was 76% (Mitogen-activated protein kinase 1 (MAPK1, Homo sapiens, UniProt P28482)).
